Measured values collected from several papers.
Parts stem from different laboratories: compare values within a part only. Substitutions count along the parent as printed.

Sample 1
Target: ABI1, truncated, D143A, DHFR fusion (Arabidopsis thaliana, UniProt P49597)
Method: DHFR PCA, dose-response
Matrix: yeast
Setting: Hill fit, not affinity
With: (+)-ABA, dose series
Reading: lower = more sensitive
Parent: PYL1, truncated, DHFR fusion (Arabidopsis thaliana, UniProt Q8VZS8); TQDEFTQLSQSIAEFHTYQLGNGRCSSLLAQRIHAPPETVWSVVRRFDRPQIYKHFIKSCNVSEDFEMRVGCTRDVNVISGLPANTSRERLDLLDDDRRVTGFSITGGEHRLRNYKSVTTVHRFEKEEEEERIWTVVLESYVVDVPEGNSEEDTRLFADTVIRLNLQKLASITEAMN
| Change | ABA EC50 [nM] |
| --- | --- |
| N85M | 20400 |
| E131G | 2030 |
| T173C | 2400 |
| S87Y | 1560 |
| T106L | 5020 |
| C72A | 1070 |
| N85T | 2250 |
| D92G | 276000 |

Sample 2
Target: Protein C-ets-1 (ETS1, Homo sapiens, UniProt P14921, residues 1-441, K379A, full length assumed)
Method: protein-binding microarray
Molecule type: double-stranded DNA, one strand shown
Matrix: in vitro
Tested at: not given
Setting: k-mer, scored over probes, only values ≥0.25
Reading: higher = stronger binding
Target sequence (chain): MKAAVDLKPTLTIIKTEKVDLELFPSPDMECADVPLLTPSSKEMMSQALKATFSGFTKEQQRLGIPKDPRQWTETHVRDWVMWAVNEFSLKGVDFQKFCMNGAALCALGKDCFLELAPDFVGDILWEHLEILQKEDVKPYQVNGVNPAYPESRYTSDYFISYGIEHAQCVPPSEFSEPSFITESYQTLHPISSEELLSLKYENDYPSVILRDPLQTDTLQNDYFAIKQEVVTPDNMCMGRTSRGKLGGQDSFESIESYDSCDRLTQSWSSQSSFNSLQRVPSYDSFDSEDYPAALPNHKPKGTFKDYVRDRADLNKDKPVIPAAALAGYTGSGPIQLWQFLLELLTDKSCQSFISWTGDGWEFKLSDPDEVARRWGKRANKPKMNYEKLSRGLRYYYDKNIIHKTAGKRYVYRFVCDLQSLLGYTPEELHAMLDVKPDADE
| Strand | E-score |
| --- | --- |
| CCACACAC | 0.261 |
| AATTACCG | 0.326 |
| AATCCGGT | 0.378 |
| TATACAGA | 0.285 |
| CCAACACA | 0.258 |
| GATGTCAC | 0.31 |
| ATACCGGC | 0.394 |
| ATTGCCGG | 0.31 |

Mixed results
| SMILES | tested on | assay | test system | setting | quantity | result |
| --- | --- | --- | --- | --- | --- | --- |
| COc1c2occc2cc2ccc(=O)oc12 | Sarcocystis neurona | parasite activity | – | 10 µM, 96 h | activity class | inactive |
| CC(C)n1cnc(-c2ccc(F)cc2)c1-c1ncc(C(=O)Nc2ccc(N3CCN(C)CC3)cc2)[nH]1 | – | phase 2a trial | idiopathic pulmonary fibrosis patients | dose not given, adverse event grade 4, all dose arms pooled | patients with gastrointestinal disorders | 0% |

Some of these lines once more (sample 2):
| Strand | E-score |
| --- | --- |
| GATGTCAC | 0.31 |
| AATTACCG | 0.326 |
